# Published values gathered from unrelated publications.
# Each numbered part is a random draw from the data of one study; scales do not carry over between parts.

# Study 1
# Target: Histone acetyltransferase KAT6A, winged helix 1, GST fusion (KAT6A, Homo sapiens, UniProt Q92794, residues 1-85)
# Method: protein binding microarray
# Form: double-stranded DNA, one strand shown
# Sample: in vitro
# Tested at: not given
# Notes: 8-mer, flanks averaged, mean of 2 arrays, mostly near background
# Relative to: not given
# Direction: higher = stronger binding
# Target sequence (chain): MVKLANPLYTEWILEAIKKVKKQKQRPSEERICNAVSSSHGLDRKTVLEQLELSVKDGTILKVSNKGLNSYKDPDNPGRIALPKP
Strand,E-score
AGTCACTC,-0.0777
AGACTTAC,-0.0225
ATGTACCG,0.197
AGCGCACC,0.284
AGCGGATG,0.213
ATCAATCA,-0.164
GGAACCAA,-0.0832
GAAAGATA,-0.188
GCTCCCAC,-0.032

# Study 2
# Target: Ras GTPase-activating protein-binding protein 1, RRM domain (G3BP1, Homo sapiens, UniProt Q13283)
# Sequence of UniProt Q13283 (whole entry, looked up): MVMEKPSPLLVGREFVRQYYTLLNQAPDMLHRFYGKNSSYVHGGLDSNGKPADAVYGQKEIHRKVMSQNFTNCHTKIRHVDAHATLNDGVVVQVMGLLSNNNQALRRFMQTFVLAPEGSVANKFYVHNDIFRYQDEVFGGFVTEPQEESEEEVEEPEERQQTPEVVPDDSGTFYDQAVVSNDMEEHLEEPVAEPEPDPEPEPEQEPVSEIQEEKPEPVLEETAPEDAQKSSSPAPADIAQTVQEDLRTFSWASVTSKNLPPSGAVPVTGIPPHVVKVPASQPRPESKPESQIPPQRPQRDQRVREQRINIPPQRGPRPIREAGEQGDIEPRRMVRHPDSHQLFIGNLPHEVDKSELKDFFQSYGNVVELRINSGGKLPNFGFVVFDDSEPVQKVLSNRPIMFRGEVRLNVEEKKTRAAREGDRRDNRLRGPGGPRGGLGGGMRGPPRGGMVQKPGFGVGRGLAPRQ
# Method: RNA Bind-n-Seq
# Form: RNA
# Sample: in vitro
# Tested at: 1 µM
# Notes: whole 134-nt RNA, ends assumed
# With: 150 mM KCl
# Relative to: input library
# Direction: higher = stronger binding
Strand,log2 enrichment
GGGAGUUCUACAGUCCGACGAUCCAAGUCCUGUGCUACACAUCGUAUGUACCGAAUCGGGAAAGGAAAGGGGAAAGGGGAAAGUAUUAUGUUACGCCGUUCGGAUCUGCACUUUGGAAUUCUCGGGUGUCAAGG,0.219
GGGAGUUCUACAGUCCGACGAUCUGGCCCUGGUGGCAUGAGGGGAGGAAGAGGUGGCCUCAUGGAUCGUGGUGGUCCCGGUGGAAUGUUCAGAGGUGGCCGUGGUGGAGACAGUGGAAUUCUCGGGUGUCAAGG,0.861
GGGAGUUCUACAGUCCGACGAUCUAACUUUAGAGGAGGAUCUGAUGGAUAUGGCAGUGGACGUGAAUUUGGGGAUGGCUAUAAUGGGUAUGGAGGAGGACCUGGAGGUGGCAAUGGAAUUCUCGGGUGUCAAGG,-0.406
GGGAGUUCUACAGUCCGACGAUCCUCAAGUCCUGUGCUACACAUCGUAUGUACCGAAUCGGGGUGGGGUGGUGGGGAAAGUAUUAUGUUACGCCGUUCGGAUCUGCACUUCCAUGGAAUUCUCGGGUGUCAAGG,0.246
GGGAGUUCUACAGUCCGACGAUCCAAGUCCUGUGCUACACAUCGUAUGUACCGAAUCGGGUUUGGGUGGGUUUUUGGGAAAGUAUUAUGUUACGCCGUUCGGAUCUGCACUUCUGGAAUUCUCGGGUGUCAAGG,0.727
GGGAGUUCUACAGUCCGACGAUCCUGUGCUACACAUCGUAUGUACCGAAUCGGUUUUUUUGGGUUUUUUUGGGGUUUUUUUGGGGAAAGUAUUAUGUUACGCCGUUCGGAUCUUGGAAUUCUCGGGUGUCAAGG,-0.3

# Study 3
# Target: Sal-like protein 4, full length isoform A (SALL4, Homo sapiens, UniProt Q9UJQ4, residues 1-1053)
# Sequence of UniProt Q9UJQ4 (whole entry, looked up): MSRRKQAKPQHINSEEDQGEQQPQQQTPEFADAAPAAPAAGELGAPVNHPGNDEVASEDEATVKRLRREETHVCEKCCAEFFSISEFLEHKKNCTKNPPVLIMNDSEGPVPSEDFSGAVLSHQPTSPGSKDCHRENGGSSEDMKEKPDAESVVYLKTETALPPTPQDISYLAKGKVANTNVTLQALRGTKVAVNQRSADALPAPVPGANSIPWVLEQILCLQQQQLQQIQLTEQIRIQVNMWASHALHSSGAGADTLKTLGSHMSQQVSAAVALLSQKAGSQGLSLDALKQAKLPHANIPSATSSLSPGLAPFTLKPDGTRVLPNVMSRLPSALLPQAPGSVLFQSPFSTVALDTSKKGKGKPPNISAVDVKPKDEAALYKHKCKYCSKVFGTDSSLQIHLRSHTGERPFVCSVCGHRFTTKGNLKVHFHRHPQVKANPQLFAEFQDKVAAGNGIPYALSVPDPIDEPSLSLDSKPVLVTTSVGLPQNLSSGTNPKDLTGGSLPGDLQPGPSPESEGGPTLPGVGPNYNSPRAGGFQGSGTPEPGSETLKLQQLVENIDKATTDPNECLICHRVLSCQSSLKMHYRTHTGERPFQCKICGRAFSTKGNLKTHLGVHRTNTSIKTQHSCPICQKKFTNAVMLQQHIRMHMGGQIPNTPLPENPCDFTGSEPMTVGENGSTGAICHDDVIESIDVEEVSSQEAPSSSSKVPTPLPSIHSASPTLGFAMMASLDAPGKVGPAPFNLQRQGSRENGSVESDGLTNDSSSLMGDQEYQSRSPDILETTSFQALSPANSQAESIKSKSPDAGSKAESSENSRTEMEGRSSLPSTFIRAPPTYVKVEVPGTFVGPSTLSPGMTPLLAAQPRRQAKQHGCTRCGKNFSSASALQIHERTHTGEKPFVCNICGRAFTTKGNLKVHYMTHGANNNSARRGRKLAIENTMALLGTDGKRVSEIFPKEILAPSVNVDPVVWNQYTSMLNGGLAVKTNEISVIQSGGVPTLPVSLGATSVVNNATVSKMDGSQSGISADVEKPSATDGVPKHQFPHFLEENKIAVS
# Method: universal PBM
# Form: double-stranded DNA, one strand shown
# Sample: in vitro
# Tested at: 600 nM
# Notes: 8-mer, flanks averaged, mean of replicates
# Direction: higher = stronger binding
Strand,E-score
AATCACGG,0.171
CGACCCCG,-0.4
GAAAAAAA,0.325
ATGTTCAC,0.0987
CTAGCACA,-0.0366
ATTGAGAC,0.134
TGTTTAAA,0.164
CTTATGAA,0.273
GCGTCCAC,-0.303

# Mixed results
Substance,target,test,test system,setting,scale,quantity,result
"PhoQ, residues 284 288 289 292 302 303 STVVAA","PhoP, residues 12 14 15 18 19 NFCKL (Escherichia coli, UniProt P23836)","Sort-seq, refers to: YFP reporter",E. coli,"PhoQ-PhoP variant library, with: 10 µM Mg2+","relative to: high Mg2+ state, higher = stronger signaling",fold induction,1.37

# Repeated from above (study 2):
Strand,log2 enrichment
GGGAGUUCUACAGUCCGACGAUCUAACUUUAGAGGAGGAUCUGAUGGAUAUGGCAGUGGACGUGAAUUUGGGGAUGGCUAUAAUGGGUAUGGAGGAGGACCUGGAGGUGGCAAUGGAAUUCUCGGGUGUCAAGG,-0.406
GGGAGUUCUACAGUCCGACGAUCCUCAAGUCCUGUGCUACACAUCGUAUGUACCGAAUCGGGGUGGGGUGGUGGGGAAAGUAUUAUGUUACGCCGUUCGGAUCUGCACUUCCAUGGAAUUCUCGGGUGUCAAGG,0.246
